Measured values gathered from unrelated publications.
Every numbered part comes from another study and shows a few of its results, in no order. “And” joins repeats or separate records; there may be more than shown.
Chain of UniProt Q13873 (whole entry, looked up): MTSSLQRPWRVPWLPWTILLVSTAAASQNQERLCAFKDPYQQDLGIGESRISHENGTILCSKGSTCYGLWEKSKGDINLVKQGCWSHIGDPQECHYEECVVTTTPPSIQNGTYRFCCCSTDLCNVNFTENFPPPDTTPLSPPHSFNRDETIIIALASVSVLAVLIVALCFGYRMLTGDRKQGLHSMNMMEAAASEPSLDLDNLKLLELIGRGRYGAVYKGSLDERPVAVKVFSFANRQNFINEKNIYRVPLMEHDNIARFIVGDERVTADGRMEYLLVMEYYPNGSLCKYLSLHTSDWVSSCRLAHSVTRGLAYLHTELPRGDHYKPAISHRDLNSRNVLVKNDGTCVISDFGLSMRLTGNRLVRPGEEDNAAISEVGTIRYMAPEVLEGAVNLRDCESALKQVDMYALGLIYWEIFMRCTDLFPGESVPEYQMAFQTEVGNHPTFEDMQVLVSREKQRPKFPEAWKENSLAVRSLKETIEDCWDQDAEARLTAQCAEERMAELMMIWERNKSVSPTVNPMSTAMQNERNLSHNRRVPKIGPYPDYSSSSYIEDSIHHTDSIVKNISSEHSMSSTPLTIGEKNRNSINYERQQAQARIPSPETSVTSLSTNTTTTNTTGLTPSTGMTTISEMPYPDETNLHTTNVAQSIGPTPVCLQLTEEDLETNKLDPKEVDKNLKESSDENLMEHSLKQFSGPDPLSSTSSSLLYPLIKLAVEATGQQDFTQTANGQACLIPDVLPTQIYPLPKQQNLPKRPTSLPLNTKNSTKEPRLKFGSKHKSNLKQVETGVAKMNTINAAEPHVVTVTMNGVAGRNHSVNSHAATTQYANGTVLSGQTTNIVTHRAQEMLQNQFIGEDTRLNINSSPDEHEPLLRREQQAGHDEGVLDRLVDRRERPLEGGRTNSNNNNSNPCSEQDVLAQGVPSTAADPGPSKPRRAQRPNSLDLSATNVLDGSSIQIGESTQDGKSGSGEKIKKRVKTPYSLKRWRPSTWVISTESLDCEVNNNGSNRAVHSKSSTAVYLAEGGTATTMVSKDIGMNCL
Chain of UniProt Q12851 (whole entry, looked up): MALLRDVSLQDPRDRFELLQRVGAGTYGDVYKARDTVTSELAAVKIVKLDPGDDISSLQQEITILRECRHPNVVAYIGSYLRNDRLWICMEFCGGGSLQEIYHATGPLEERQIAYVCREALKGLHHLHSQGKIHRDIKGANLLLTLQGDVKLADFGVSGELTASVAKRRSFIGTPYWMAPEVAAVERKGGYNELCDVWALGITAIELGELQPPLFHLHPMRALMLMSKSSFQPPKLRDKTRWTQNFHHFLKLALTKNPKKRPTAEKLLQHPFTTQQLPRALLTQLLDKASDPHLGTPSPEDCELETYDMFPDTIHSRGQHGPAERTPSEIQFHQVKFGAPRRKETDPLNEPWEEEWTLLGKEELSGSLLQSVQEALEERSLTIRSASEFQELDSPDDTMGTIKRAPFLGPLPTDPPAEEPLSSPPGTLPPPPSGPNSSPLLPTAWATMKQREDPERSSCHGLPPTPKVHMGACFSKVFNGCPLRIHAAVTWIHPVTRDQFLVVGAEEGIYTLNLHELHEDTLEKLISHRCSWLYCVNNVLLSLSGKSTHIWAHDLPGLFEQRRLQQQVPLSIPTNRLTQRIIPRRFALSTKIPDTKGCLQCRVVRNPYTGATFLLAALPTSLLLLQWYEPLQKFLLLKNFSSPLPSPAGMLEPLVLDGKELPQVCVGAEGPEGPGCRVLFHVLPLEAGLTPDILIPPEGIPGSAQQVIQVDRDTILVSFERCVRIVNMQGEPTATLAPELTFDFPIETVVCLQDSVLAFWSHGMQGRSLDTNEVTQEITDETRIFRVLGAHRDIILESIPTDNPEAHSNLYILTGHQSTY
Chain of UniProt Q9H4B4 (whole entry, looked up): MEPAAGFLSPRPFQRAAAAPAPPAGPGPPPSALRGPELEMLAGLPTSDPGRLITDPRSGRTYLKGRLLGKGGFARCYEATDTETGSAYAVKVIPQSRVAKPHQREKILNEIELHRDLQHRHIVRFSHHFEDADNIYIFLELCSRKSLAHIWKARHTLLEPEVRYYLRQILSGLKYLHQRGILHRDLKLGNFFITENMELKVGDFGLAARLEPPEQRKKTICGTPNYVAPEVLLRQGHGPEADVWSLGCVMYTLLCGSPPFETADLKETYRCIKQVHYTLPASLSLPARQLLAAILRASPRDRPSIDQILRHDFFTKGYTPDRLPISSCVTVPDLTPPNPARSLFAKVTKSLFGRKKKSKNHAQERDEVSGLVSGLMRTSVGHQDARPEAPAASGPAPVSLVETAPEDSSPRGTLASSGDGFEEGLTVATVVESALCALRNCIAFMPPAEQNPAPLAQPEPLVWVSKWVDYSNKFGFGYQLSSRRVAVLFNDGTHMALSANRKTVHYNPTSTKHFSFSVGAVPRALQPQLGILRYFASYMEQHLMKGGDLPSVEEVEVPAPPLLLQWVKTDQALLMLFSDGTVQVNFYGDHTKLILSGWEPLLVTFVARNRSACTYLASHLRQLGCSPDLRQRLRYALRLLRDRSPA
Chain of UniProt P42336 (whole entry, unmodified, looked up): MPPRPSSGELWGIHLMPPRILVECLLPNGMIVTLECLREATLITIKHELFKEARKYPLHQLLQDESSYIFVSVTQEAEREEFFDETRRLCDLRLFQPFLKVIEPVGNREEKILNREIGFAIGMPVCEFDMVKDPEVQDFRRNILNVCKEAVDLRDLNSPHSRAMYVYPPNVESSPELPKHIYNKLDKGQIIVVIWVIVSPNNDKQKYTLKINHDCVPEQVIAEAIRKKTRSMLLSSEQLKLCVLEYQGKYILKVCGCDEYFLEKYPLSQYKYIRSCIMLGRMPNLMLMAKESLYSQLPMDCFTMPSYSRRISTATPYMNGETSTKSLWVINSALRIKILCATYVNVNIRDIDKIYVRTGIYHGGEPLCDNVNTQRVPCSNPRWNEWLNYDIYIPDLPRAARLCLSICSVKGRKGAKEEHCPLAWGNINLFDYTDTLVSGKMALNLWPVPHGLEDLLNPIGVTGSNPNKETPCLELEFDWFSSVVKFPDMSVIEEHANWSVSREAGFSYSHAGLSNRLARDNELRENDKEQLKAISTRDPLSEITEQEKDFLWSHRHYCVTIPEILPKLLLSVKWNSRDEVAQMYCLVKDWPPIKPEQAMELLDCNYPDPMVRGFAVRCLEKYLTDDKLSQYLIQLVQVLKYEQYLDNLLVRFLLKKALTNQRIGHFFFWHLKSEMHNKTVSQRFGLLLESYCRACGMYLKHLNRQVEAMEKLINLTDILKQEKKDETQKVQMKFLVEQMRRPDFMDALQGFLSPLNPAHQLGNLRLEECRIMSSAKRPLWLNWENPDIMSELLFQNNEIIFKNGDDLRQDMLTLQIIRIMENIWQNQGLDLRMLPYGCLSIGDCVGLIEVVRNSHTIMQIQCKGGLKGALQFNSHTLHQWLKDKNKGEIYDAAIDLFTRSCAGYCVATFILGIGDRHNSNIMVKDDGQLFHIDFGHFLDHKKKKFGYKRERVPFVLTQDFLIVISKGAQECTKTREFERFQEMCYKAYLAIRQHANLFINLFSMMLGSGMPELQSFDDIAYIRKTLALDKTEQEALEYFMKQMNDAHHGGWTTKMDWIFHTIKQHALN
Chain of UniProt Q9HBY8 (whole entry, looked up): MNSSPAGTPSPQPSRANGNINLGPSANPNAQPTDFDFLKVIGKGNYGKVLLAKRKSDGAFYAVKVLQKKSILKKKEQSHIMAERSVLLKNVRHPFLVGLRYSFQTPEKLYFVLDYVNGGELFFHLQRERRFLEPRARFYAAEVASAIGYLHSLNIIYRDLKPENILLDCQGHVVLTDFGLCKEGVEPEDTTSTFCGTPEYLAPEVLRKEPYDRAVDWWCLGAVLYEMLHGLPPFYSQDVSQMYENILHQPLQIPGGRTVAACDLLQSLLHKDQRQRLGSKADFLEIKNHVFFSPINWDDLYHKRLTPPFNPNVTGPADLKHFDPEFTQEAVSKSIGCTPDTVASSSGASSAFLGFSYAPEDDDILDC
Chain of UniProt Q92630 (whole entry, looked up): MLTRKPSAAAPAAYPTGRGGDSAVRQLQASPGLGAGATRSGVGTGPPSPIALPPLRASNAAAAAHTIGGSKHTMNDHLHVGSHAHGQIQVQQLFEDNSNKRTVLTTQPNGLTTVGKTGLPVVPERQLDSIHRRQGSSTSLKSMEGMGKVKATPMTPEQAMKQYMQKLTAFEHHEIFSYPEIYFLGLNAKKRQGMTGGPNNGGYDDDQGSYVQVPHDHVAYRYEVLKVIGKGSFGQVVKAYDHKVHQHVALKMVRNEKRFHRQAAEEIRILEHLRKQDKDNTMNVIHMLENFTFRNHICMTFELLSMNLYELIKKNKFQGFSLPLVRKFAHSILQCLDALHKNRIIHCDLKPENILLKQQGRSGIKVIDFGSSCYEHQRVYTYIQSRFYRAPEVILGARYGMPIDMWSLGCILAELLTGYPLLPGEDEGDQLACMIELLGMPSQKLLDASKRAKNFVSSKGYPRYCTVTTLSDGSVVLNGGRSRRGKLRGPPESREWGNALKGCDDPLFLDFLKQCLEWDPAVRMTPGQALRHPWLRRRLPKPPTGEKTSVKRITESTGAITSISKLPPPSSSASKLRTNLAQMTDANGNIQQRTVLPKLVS

Set 1 — read-out: enzyme activity; mode: inhibitor; concentration: 0.5 µM; reference: control
Target: Serine/threonine-protein kinase Nek7 (NEK7, Homo sapiens, UniProt Q8TDX7)
Chain of UniProt Q8TDX7 (whole entry, looked up): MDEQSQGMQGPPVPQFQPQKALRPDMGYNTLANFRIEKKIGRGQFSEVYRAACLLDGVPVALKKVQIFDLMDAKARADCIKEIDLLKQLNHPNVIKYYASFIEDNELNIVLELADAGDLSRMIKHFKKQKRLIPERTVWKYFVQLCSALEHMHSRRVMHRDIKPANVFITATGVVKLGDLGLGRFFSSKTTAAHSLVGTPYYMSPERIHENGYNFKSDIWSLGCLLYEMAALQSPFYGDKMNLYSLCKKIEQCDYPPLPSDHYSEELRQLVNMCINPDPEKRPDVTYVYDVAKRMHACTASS
For `O=C1c2ccccc2-c2n[nH]c3cccc1c23`, the remaining activity was 103%.
`CN([C@@H](Cc1ccc(OS(=O)(=O)c2cccc3cnccc23)cc1)C(=O)N1CCN(c2ccccc2)CC1)S(=O)(=O)c1cccc2cnccc12` has a remaining activity of 93.3%.
The remaining activity of `CN(C)C[C@H]1CCn2c(c(C3=C(c4cn(C)c5ccccc45)C(=O)NC3=O)c3ccccc32)C1` is reported as 100%.
`Cc1nc2cc3nc(-c4cccs4)cnc3cc2n1C` gave a remaining activity of 86.5%.
`CCN(CC)CCNC(=O)c1c(C)[nH]c(/C=C2\C(=O)Nc3ccc(F)cc32)c1C` has a remaining activity of 93.5%.
`N#C/C(=C\c1ccc(O)c(O)c1)C(=O)NCc1ccccc1` has a remaining activity of 111%.
`COc1cc2ncnc(Nc3ccc(O)c(Br)c3)c2cc1OC` gave a remaining activity of 101%.
`Cc1cc2ncc(-c3ccccc3)nc2cc1C` has a remaining activity of 102%.
`c1ccc(-c2[nH]ncc2-c2ccnc3ccccc23)nc1` has a remaining activity of 102%.
`Ic1cccc(CSc2nnc(-c3ccncc3)o2)c1` has a remaining activity of 102%.
`CCN(CC)CCNC(=O)c1c(C)[nH]c(/C=C2\C(=O)Nc3ccc(Cl)cc32)c1C` has a remaining activity of 99.3%.
`CCN(CC)C(=O)c1ccc(Nc2nc(OCC3CCCCC3)c3[nH]cnc3n2)cc1` gave a remaining activity of 103%.
With `Cn1nc2c3c(cccc31)C(=O)c1ccccc1-2` the remaining activity was 93.1%.
`COc1cc2ncnc(Nc3cccc(Cl)c3)c2cc1OC` gave a remaining activity of 99%.
With `O=C1C(Cl)=C(N2C(=O)CCC2=O)C(=O)c2ccccc21` the remaining activity was 95.4%.
`N#Cc1c(NC(=O)c2cccc3ccccc23)sc2c1CCCC2` gave a remaining activity of 89.2%.
With `O=c1cc(-c2cccc3c2Sc2ccccc2S3)oc(N2CCOCC2)c1` the remaining activity was 105%.
`O=C(NC(NC(=S)Nc1ccc(F)c([N+](=O)[O-])c1)C(Cl)(Cl)Cl)C(c1ccccc1)c1ccccc1` (centres unmarked) gave a remaining activity of 102%.
With `COc1cc2c(cc1OC)-c1[nH]nc(Nc3cccc(F)c3)c1C2` the remaining activity was 100%.
With `O=C(Nc1cccc(Nc2nccc(Nc3cccc(C(F)(F)F)c3)n2)c1)C1CC1` the remaining activity was 116%.
With `Cc1cn(-c2cc(NC(=O)c3ccc(C)c(Nc4nccc(-c5cccnc5)n4)c3)cc(C(F)(F)F)c2)cn1` the remaining activity was 95.5%.
For `c1ccc(-c2cnc(Nc3ccc(OCCN4CCCC4)cc3)s2)cc1`, the remaining activity was 100%.
`Nc1cccc(-c2cc3c(Oc4cccc(O)c4)ncnc3[nH]2)c1` has a remaining activity of 99.4%.
`CCOc1nc(NC(=O)Cc2cc(OC)ccc2OC)cc(N)c1C#N` has a remaining activity of 93.5%.

Set 2 — cell line: mouse MPNST tumor cells; method: high-content nuclear imaging; measured: cell number; concentration: 10 µM; time: 12 h; setting: mean of 2 replicates; reference: plate mean; direction: higher = more cells
`C=CCN1CCCC1CNC(=O)c1cc2nn[nH]c2cc1OC` (centres unmarked) has a nuclei count of 0.323 z-score.
The nuclei count of `CC(C)(C)NCC(O)COc1cccc2c1CC(O)C(O)C2` (centres unmarked) is reported as -0.759 z-score.
`Cc1cc(NC(=O)Nc2ccc3c(ccn3C)c2)sn1` has a nuclei count of -0.501 z-score.
The nuclei count of `Cc1nc2ccc(NC(=O)Nc3ccnc4cccnc34)cc2o1` is reported as 3.81 z-score.
With `CC(COc1ccccc1)NC(C)C(O)c1ccc(O)cc1` (centres unmarked) the nuclei count was 0.464 z-score.
`CN(C)[C@@H]1CCN(c2cc(-c3ccccc3)nc3ccnn23)C1` has a nuclei count of 0.438 z-score.
`COc1cc(N2CCN(C)CC2)ccc1Nc1ncc2c(n1)N(C)c1ccccc1C(=O)N2` gave a nuclei count of -0.507 z-score.
`OCCOCCN1CCN(C2=Nc3ccccc3Sc3ccccc32)CC1` has a nuclei count of -1.1 z-score and 1.31 z-score.
The nuclei count of `C=C1C(=O)O[C@@H](CCCCCCCC)[C@@H]1C(=O)O.C=C1C(=O)O[C@H](CCCCCCCC)[C@H]1C(=O)O` is reported as 0.781 z-score.
The nuclei count of `CCN(CCNC(=O)Nc1ccccc1Br)c1cccc(C)c1` is reported as 1.88 z-score.

Set 3 — read-out: cell-free assay; method: competition with immobilised ligand; concentration: 1 µM
SMILES: CCS(=O)(=O)c1cc2cc(C[C@](O)(CC(C)(C)c3ccc(F)cc3C(N)=O)C(F)(F)F)[nH]c2cn1
For Mitogen-activated protein kinase kinase kinase kinase 2 (MAP4K2, Homo sapiens, UniProt Q12851): remaining binding read 96%.
For Serine/threonine-protein kinase PLK3 (PLK3, Homo sapiens, UniProt Q9H4B4): remaining binding read 93%.
For Homeodomain-interacting protein kinase 1 (HIPK1, Homo sapiens, UniProt Q86Z02): remaining binding read 94%.
For Tyrosine-protein kinase ABL2 (ABL2, Homo sapiens, UniProt P42684): remaining binding read 80%.
It gave 78% for remaining binding (Serine/threonine-protein kinase MARK2 (MARK2, Homo sapiens, UniProt Q7KZI7)).
Bone morphogenetic protein receptor type-2 (BMPR2, Homo sapiens, UniProt Q13873) — remaining binding: 100%.
The remaining binding was 93% (Mitogen-activated protein kinase kinase kinase 4 (MAP3K4, Homo sapiens, UniProt Q9Y6R4)).
For Serine/threonine-protein kinase Sgk2 (SGK2, Homo sapiens, UniProt Q9HBY8): remaining binding read 90%.
It gave 100% for remaining binding (Serine/threonine-protein kinase NIM1 (NIM1K, Homo sapiens, UniProt Q8IY84)).
The remaining binding was 87% (Receptor-type tyrosine-protein kinase FLT3 (FLT3, Homo sapiens, UniProt P36888)).
The remaining binding was 100% (Serine/threonine-protein kinase pim-2 (PIM2, Homo sapiens, UniProt Q9P1W9)).
Proto-oncogene tyrosine-protein kinase receptor Ret (RET, Homo sapiens, UniProt P07949, V804M) — remaining binding: 100%.
For Mast/stem cell growth factor receptor Kit (KIT, Homo sapiens, UniProt P10721, V559D): remaining binding read 100%.
For Phosphatidylinositol 4,5-bisphosphate 3-kinase catalytic subunit alpha isoform (PIK3CA, Homo sapiens, UniProt P42336, M1043I): remaining binding read 88%.
The remaining binding was 92% (Dual specificity tyrosine-phosphorylation-regulated kinase 2 (DYRK2, Homo sapiens, UniProt Q92630)).

Set 4 — method: KINOMEscan; concentration: 10 µM; reference: DMSO control; direction: lower = stronger binding
SMILES: COc1cc(C(=O)N2CCC(N3CCN(C)CC3)CC2)ccc1Nc1ncc2c(n1)N(C)c1ccccc1C(=O)N2C
It gave 100% for binding (NEK5).
For CDK3: binding read 100%.
For MLK1: binding read 93%.
The binding was 69% (MAP3K15).
TRPM6 — binding: 100%.
INSR — binding: 84%.
The binding was 100% (EIF2AK1).
It gave 24% for binding (TAOK3).
CSNK1G1 — binding: 100%.
It gave 100% for binding (ERBB3).

Some of these lines once more (set 3):
For Serine/threonine-protein kinase PLK3 (PLK3, Homo sapiens, UniProt Q9H4B4): remaining binding read 93%.
For Homeodomain-interacting protein kinase 1 (HIPK1, Homo sapiens, UniProt Q86Z02): remaining binding read 94%.
For Tyrosine-protein kinase ABL2 (ABL2, Homo sapiens, UniProt P42684): remaining binding read 80%.
